Assay results from different studies.
Numbered parts are unrelated; each lists some results of a single study.
Sequence of UniProt P24723 (whole entry, looked up): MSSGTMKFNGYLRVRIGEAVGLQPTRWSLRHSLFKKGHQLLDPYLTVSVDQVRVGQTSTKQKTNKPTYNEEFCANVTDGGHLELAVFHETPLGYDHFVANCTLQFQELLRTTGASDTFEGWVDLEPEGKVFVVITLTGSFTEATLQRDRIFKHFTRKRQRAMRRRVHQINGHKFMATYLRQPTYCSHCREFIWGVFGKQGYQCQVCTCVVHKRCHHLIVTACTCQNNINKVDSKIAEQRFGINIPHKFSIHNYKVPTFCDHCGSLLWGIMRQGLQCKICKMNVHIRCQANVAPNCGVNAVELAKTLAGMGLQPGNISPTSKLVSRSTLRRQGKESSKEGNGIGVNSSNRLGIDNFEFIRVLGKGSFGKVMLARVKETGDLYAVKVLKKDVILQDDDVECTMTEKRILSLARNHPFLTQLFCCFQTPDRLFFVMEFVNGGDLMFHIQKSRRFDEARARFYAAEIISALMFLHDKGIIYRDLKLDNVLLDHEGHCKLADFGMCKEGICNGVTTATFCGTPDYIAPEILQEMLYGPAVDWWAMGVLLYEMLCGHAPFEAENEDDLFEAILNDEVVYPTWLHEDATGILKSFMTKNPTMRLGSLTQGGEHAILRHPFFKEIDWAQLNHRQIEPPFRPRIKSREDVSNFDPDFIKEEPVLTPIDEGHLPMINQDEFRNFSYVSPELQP
Sequence of UniProt P13945 (whole entry, looked up): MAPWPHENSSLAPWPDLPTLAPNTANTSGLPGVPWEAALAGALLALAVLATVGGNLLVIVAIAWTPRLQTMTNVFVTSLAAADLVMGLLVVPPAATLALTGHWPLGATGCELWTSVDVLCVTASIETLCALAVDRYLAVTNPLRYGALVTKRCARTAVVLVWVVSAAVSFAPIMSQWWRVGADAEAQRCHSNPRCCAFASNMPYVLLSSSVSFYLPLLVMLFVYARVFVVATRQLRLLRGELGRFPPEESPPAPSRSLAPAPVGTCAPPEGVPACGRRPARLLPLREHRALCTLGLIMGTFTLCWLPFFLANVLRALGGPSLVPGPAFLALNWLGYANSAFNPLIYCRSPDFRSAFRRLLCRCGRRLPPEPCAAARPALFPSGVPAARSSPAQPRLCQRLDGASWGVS
Sequence of UniProt P25021 (whole entry, looked up): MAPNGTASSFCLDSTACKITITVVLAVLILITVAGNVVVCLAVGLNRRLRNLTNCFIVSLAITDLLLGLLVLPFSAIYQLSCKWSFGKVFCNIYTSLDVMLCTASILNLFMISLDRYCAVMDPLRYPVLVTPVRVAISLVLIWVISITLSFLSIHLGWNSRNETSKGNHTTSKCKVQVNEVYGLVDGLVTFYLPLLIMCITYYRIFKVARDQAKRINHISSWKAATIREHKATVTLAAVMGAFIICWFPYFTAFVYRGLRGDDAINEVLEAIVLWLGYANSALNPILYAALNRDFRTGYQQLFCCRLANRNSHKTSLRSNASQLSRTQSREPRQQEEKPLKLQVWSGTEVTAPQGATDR
Sequence of UniProt P21917 (whole entry, looked up): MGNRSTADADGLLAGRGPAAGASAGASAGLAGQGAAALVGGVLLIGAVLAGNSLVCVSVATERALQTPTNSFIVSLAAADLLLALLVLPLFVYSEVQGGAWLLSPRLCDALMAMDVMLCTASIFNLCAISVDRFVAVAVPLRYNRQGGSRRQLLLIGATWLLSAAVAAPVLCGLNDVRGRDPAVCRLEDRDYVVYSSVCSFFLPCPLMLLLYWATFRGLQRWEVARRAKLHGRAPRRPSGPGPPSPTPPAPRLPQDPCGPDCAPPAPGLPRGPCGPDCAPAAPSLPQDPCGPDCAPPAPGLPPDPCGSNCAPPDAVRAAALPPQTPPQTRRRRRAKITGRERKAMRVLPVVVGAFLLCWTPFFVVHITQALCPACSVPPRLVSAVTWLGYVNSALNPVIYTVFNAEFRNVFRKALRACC
Sequence of UniProt Q9Y5N1 (whole entry, looked up): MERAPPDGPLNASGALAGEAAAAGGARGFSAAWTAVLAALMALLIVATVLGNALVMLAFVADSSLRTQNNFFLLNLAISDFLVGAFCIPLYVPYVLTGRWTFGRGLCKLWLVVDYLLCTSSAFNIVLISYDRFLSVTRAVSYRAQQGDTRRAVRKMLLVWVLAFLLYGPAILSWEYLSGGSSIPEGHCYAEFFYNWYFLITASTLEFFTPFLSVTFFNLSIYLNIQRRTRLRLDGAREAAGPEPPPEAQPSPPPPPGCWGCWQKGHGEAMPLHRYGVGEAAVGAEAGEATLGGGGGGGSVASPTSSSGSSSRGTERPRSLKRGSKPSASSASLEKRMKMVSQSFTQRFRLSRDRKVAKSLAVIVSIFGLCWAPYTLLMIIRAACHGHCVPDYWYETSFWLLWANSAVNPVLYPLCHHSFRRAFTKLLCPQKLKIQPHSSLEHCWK
Sequence of UniProt Q14289 (whole entry, looked up): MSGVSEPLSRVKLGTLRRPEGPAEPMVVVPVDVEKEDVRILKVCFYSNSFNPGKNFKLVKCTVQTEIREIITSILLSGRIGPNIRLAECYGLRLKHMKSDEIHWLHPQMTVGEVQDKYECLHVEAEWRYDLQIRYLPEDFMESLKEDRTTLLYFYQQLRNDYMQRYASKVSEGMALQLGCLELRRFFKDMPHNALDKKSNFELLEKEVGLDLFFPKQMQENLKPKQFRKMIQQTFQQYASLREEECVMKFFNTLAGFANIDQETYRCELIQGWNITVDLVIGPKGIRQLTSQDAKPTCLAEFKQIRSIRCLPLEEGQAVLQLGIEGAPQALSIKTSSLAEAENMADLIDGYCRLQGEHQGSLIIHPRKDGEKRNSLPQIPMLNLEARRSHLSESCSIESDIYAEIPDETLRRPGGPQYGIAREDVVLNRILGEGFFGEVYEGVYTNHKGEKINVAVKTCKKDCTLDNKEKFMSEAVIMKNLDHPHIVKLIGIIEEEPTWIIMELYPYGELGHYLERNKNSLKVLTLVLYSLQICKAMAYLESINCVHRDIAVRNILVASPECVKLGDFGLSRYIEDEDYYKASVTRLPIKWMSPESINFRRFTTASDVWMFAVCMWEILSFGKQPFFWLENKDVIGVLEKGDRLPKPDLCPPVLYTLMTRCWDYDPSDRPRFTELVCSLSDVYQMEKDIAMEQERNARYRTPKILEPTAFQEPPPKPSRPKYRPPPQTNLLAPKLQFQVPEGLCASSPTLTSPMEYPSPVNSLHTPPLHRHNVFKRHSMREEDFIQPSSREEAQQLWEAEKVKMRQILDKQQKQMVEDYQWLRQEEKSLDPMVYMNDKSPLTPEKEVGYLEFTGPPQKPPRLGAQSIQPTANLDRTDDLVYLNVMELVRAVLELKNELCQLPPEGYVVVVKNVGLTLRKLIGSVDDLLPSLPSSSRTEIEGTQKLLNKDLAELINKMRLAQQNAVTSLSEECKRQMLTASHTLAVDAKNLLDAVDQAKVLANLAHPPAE
Sequence of UniProt P07949 (whole entry, looked up): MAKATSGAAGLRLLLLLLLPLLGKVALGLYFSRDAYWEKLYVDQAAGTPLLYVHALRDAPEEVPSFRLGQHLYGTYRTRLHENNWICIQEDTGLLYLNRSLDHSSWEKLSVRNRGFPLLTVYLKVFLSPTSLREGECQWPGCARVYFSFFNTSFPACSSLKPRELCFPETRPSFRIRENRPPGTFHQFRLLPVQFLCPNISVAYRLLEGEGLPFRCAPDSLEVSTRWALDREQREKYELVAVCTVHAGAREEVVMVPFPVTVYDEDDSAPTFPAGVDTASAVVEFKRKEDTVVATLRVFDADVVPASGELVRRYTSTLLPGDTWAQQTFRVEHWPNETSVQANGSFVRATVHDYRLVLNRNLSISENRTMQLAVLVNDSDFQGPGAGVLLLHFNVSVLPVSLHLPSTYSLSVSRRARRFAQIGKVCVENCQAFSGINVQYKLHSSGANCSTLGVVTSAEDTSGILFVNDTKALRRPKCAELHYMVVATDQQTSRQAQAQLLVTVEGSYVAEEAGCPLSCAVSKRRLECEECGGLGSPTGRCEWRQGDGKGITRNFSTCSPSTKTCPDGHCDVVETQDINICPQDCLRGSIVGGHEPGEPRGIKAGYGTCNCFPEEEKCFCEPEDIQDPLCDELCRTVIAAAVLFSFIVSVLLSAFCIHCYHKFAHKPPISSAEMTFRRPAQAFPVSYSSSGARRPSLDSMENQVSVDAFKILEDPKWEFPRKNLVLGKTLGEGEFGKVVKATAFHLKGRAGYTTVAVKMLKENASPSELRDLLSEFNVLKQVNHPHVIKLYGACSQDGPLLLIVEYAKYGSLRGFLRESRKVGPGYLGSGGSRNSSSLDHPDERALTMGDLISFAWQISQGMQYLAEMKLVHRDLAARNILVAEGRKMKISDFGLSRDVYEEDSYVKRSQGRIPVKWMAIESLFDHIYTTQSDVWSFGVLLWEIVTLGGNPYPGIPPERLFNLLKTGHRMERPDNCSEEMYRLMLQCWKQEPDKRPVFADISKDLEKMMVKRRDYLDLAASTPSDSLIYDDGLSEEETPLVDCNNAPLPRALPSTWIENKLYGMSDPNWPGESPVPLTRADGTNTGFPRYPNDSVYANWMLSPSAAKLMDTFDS

Series 1
Compound: Cc1c(C(=O)O)cc(-c2ccc(C3CCNCC3)cc2)c2ccc(-c3ccc(C(F)(F)F)cc3)cc12
Read-out: cell-free assay
Tested at: 10 µM
Quantity: inhibition
HRH2 (Homo sapiens, UniProt P25021): 9%
ADRB3 (Homo sapiens, UniProt P13945): 57.5%
ADRB1 (Homo sapiens, UniProt P08588): 29.2%
DRD4 (Homo sapiens, UniProt P21917): 8.42%
HRH4 (Homo sapiens, UniProt Q9H3N8): -4.71%
ADRA2A (Homo sapiens, UniProt P08913): 34.8%
DRD3 (Homo sapiens, UniProt P35462): 46.7%
ADRB2 (Homo sapiens, UniProt P07550): 27.8%
ADRA2C (Homo sapiens, UniProt P18825): 46.4%
ADRA1D (Homo sapiens, UniProt P25100): 13.3%
ADRA1B (Homo sapiens, UniProt P35368): 57.4%
SIGMAR1 (Homo sapiens, UniProt Q99720): 91.8%
HRH3 (Homo sapiens, UniProt Q9Y5N1): 7.04%

Series 2
Compound: O=C(Nc1ccccc1)Nc1cccc(Oc2ccc3nccn3n2)c1
Tested at: 1 µM
Quantity: remaining binding
WNK2 (Homo sapiens, UniProt Q9Y3S1); competitive binding panel; relative to: vehicle: 100%
PTK2B (Homo sapiens, UniProt Q14289); competitive binding panel, item: PYK2; relative to: vehicle: 40%
EGFR (Homo sapiens, UniProt P00533, del752-759); competitive binding panel; relative to: vehicle: 91%
PTK2 (Homo sapiens, UniProt Q05397); competitive binding; FAK: 100%
CAMK1G (Homo sapiens, UniProt Q96NX5); competitive binding panel; relative to: vehicle: 100%
PRKCH (Homo sapiens, UniProt P24723); competitive binding panel; relative to: vehicle: 100%
RET (Homo sapiens, UniProt P07949); competitive binding panel; relative to: vehicle: 92%
EPHA7 (Homo sapiens, UniProt Q15375); competitive binding panel; relative to: vehicle: 100%
MAP3K6 (Homo sapiens, UniProt O95382); competitive binding panel, item: ASK2; relative to: vehicle: 100%

Series 3
Compound: CC(=O)N[C@@H](Cc1c[nH]c2ccccc12)C(=O)N[C@@H](CCC(=O)C=[N+]=[N-])C(=O)OC(C)C
Matrix: EL4 tumour
Dose: dose not given
Relative to: vehicle
Quantity: log2 fold change
item: hypotaurine; mouse, EL4 tumour-bearing: -2.22
item: 7-methylguanine; mouse, EL4 tumour-bearing: -0.624
item: cytidine; mouse, EL4 tumour-bearing: 0.048
item: imidazole lactate; Mus musculus: -1.13
item: mannose; mouse, EL4 tumour-bearing: 1.09
item: thioproline; mouse, EL4 tumour-bearing: -0.878
item: gamma-glutamylcysteine; mouse, EL4 tumour-bearing: -0.847
item: N('1)-acetylspermidine; mouse, EL4 tumour-bearing: -0.04
item: gamma-glutamylisoleucine*; mouse, EL4 tumour-bearing: -0.123
item: pyridoxate; mouse, EL4 tumour-bearing: 0.511

Series 4
Target: MAP kinase-activated protein kinase 5 (MAPKAPK5, Homo sapiens, UniProt Q8IW41)
Sequence of UniProt Q8IW41 (whole entry, looked up): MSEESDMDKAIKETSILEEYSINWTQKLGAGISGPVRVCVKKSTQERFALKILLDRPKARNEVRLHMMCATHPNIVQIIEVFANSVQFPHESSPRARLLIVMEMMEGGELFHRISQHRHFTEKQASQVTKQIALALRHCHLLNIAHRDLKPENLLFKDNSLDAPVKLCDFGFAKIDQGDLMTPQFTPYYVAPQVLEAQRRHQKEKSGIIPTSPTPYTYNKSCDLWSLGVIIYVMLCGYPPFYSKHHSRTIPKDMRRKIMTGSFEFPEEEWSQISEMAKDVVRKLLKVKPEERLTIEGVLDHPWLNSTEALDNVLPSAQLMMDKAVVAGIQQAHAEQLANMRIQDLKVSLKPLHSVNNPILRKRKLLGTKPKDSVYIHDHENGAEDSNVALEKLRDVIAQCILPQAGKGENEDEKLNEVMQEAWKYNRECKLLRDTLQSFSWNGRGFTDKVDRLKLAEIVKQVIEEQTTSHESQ
Read-out: enzyme activity
Mode: inhibitor
Tested at: 0.5 µM
Relative to: control
Quantity: remaining activity
Nc1cccc(-c2cc3c(Oc4cccc(O)c4)ncnc3[nH]2)c1: 125%
Cc1nc2cc3nc(-c4cccs4)cnc3cc2n1C: 100%
Ic1cccc(CSc2nnc(-c3ccncc3)o2)c1: 83.6%
O=C1c2ccccc2-c2n[nH]c3cccc1c23: 91.3%
Cc1cn(-c2cc(NC(=O)c3ccc(C)c(Nc4nccc(-c5cccnc5)n4)c3)cc(C(F)(F)F)c2)cn1: 91.5%
CN([C@@H](Cc1ccc(OS(=O)(=O)c2cccc3cnccc23)cc1)C(=O)N1CCN(c2ccccc2)CC1)S(=O)(=O)c1cccc2cnccc12: 97%
c1ccc(-c2[nH]ncc2-c2ccnc3ccccc23)nc1: 95.6%
COc1cc2ncnc(Nc3ccc(O)c(Br)c3)c2cc1OC: 98.7%
COc1cc2c(cc1OC)-c1[nH]nc(Nc3cccc(F)c3)c1C2: 82.3%
O=C(Nc1cccc(Nc2nccc(Nc3cccc(C(F)(F)F)c3)n2)c1)C1CC1: 91.9%
Cc1cc2ncc(-c3ccccc3)nc2cc1C: 95.1%
N#C/C(=C\c1ccc(O)c(O)c1)C(=O)NCc1ccccc1: 94.2%
CCN(CC)CCNC(=O)c1c(C)[nH]c(/C=C2\C(=O)Nc3ccc(Cl)cc32)c1C: 91.6%
COc1cc2ncnc(Nc3cccc(Cl)c3)c2cc1OC: 89.5%
CCOc1nc(NC(=O)Cc2cc(OC)ccc2OC)cc(N)c1C#N: 86.5%
O=C(NC(NC(=S)Nc1ccc(F)c([N+](=O)[O-])c1)C(Cl)(Cl)Cl)C(c1ccccc1)c1ccccc1 (stereo not shown): 102%
CN(C)C[C@H]1CCn2c(c(C3=C(c4cn(C)c5ccccc45)C(=O)NC3=O)c3ccccc32)C1: 95.4%
O=c1cc(-c2cccc3c2Sc2ccccc2S3)oc(N2CCOCC2)c1: 94.5%
Cn1nc2c3c(cccc31)C(=O)c1ccccc1-2: 94.5%
CCN(CC)C(=O)c1ccc(Nc2nc(OCC3CCCCC3)c3[nH]cnc3n2)cc1: 87.8%
N#Cc1c(NC(=O)c2cccc3ccccc23)sc2c1CCCC2: 96.6%
O=C1C(Cl)=C(N2C(=O)CCC2=O)C(=O)c2ccccc21: 73.6%
c1ccc(-c2cnc(Nc3ccc(OCCN4CCCC4)cc3)s2)cc1: 83.4%
